# Measured values pooled from the literature.
# Parts stem from different laboratories: compare values within a part only.

# Series 1
# Target: Phosphate system positive regulatory protein PHO4, full length, GST-tagged (PHO4, Saccharomyces cerevisiae, UniProt P07270, residues 1-312)
# Technique: competition protein-binding microarray
# Form: double-stranded DNA, one strand shown
# Matrix: in vitro
# Tested at: 2 µM
# Notes: whole 60-bp probe, lowest competitor level
# Together with: Cbf1 competitor, 0.05 µM
# Direction: higher = stronger binding
# All sequences stand within: … GTCTTGATTCGCTTGACGCTGCTG
# Residues (chain): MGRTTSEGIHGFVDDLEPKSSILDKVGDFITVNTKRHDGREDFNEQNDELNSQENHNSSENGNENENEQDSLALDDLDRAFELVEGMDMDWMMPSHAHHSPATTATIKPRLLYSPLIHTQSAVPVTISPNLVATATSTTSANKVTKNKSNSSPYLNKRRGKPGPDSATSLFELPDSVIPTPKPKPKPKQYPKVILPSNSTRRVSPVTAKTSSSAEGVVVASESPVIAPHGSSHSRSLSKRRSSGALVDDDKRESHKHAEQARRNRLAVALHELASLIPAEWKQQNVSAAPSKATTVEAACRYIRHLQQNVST
Sequence,fluorescence intensity [a.u.]
TTCCGCAATAGCCAACACGTGTGGAGGAACTTCAAG,17600
TGCGCAACAACTTGGGGTGTGGGTGTATGTCTAGAA,6910
GGCCTTGGTAATGGGAACGTGGCCGAAAACGGCGAG,14600
CTAACGAAGGTTTGCGCAGTGGGTGACAAGCCAAGT,3940
CCAGTACGATTCCGTCACGTGACTCGCGATCAACTA,13100
CTAACGAAGGTTTGCATGGTGGGTGACAAGCCAAGT,5090
AAATTACTAAGTTGTTTTGTGGGTGACGCCGTATGA,3990
ATGGCTACTTTTATCCCCGTGACGAAATCTATCACT,7780
TGCGCAACAACTTGGGCCGTGGGTGTATGTCTAGAA,6490
TGCGCAACAACTTGTCACATGACTTTATGTCTAGAA,5740
CCATGTTACATAATCTTCGTGCCAGTCTAATTCGTA,6760
CGTCCTAGCGATTGACTCGTGGGTGCCATGAGGAAG,12800
AAGTTTGCTGAGGACATCGTGACTCGCCGCAAGCTA,5690
CCCCTGTGCGGCTACGTCGTGCCGACCCACCATTTG,8510
CCGAGGTTTGTTGGGTACGTGCAAAAGCGCCTGGGC,6150
CATACCCAACCTTGCGAAGTGGGTGAAGATATTTGT,4040
CGGGGTTAAGTTTGTCACGGGACTTGCTTGCAGCAG,5590
CCTTGTTCGAGTTTGGACGTGCGGAGAATCTACCCA,5390
CTTCTGTAAATTTGTAATGTGGGTGGACGCGCCCCG,5310
CTTCTGTAAATTTGTCACAACACTTGACGCGCCCCG,3410
AAAGCGGTAATTTGTTCCGTGGGTGCAGATATCTAT,4960
AAGAAATATTGCCAACACGTGAGATTGAAAAAGCAA,14100
TTACCGTCACCCGTACATGTGTGAGCAGAGGTACAA,7700
CTTTCCCGATCTTGTTCCGTGGGTGTAGCACATTTG,5510

# Series 2
# Target: RNA binding protein fox-1 homolog 2, RRM domain, GST-SBP tag (RBFOX2, Homo sapiens, UniProt O43251-10, residues 100-194)
# Technique: RNA Bind-n-Seq
# Form: RNA
# Matrix: in vitro
# Tested at: 365 nM
# Notes: natural RNA segment, single round, ends assumed
# Baseline: no-protein control
# Direction: higher = stronger binding
# All sequences stand within: GGGAGUUCUACAGUCCGACGAUC … UGGAAUUCUCGGGUGCCAA
# Target sequence (chain): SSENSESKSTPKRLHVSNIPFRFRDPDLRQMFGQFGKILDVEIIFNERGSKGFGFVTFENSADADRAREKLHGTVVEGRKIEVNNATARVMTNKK
Sequence,RBNS enrichment (R)
GACUCCCUGGGCUCCCCCCUGCCUUCAUCUCACAAGAAACUUCCUGAUGCAUCAAACUUGAGUUUUUUCCACCUCAUCUUUCCCAGUGUUUGGAAAGGUGUGAGGGUAGA,1.64
UCAAAUGUAGUCUCUGUUAAGGUCAAGUUUUCUUUUAUAAGCCUUUAAUUCAUCCUCAGUGACUCUGGCAAGGCUGCUUCUCUAUCACUGGCUUUGCACAGAAGUAUGCU,0.856
AUUGAUGGGCUGGGGAACCCUGGAGAGCCUCGACUCCGGAAGUCUCAAGGUGCCUCCUCCUCUCCUUAGCUGGCCCGUUGGUUUUCUGAGCAGGGGGCUGAACUGUGAAC,0.228
ACAUCUCUUCCUUUUCCAGAUCCCAUGCUUUGAAAAAUAUUUAUAGACAGUUCCAGGUCUCAGCUUCCUGUCCUCUAGUUCUGCUGUUCGGGCAUAAAAUCUUUAUCUCC,0.579
UAUGUAUAAUCUGUAUUUGAAAUCAUUUUGCAAUCUAUGGAAAUAGAGUAGCAAUUGCUAUUUCUAAAUUGUGAACUUUAAGUCAAUCUAGAUUUAUUUUGAGAAGUAAU,0.435
GCAUAACCUAUGCCACGAUGGUGAGAUAAUGUGAAAAAGUGGUAUCCUCUGAUGUCAGCGUAUUAGUCUCAGUUUACAAAGUACUUAAUAAAACUAACUACUGUAAAACC,0.296
UGGAGUUUACCAUGUUACCCUGUAAUUAAAAACAAAGAAUAGGUAACAUAUUGUGCCAGUGUUGCAACGUUUUAAACUGCUAACAGACCUUAAAAUAUCCCCCUACCUGG,0.228
AGGGGCUUUUAGUCGUCUCAGUAUCUUUUUUGCAUUCAGGUAUUAUAGCGUUUCCAACAAAUUGAGAAAUUACUUAUUUGGUGUAAAAUGACGAGAGAGCUUUAGAAUUU,0.746
UGCCAUCAACAUUGCUUGAAAUGCCUCUAUGUUCUGAAUAAAGAAAAACCAUAAUUGCUUGUGGUGAAACGAAGCAGUCUUCAUGUUAAGUAGCAAUGGUUAUUUUUAUU,0.385
UACCCAGCAGGUAUCACUUGGUAAAAAUACAAGAGCAAAGCCACUUGAGACUGAAGGUUCUUUAAAGACCGUAAGGAUGGCUUCCGACGUGUCAUGCUGCUGCUGUGAUC,0.85
CAAAUCUUGUUGCUGAUUUGUCCAUUUCUUUCCCUGCACUUUGUUACAUCUGGGAUACAGUCUAACUCAUCUGAUUUAAUAUGCAUUUAAAAAAAUGCCAUAACUAUUAA,0.533
UGGUUUUGAUUUCAGAUUGCAAACAUGUAAAACCUGCAUAGCAGCGAGUUCUCGGUUUUGCCGGUUUCUUUAGUUCUUUACUGUCACUGUCAUGUAAUCAGCUAAUUCUC,0.291

# Series 3
# Target: Interferon regulatory factor 3, full length, phosphomimetic (IRF3, Homo sapiens, UniProt Q14653, residues 1-427, S386D/S396D/S398D/S402D/T404D/S405D)
# Chain of UniProt Q14653 (whole entry, unmodified, looked up): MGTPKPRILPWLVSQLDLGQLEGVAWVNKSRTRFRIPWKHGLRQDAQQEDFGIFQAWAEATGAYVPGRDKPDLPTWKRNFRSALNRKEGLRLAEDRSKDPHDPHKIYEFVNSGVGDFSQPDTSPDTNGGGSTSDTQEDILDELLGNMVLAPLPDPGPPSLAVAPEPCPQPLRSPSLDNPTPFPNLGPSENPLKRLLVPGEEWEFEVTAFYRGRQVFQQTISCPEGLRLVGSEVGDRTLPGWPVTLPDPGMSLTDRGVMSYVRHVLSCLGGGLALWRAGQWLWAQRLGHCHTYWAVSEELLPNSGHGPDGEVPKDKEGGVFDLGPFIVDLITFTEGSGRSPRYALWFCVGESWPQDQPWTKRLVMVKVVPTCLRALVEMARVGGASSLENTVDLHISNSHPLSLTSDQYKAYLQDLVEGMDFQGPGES
# Technique: protein-binding microarray
# Form: double-stranded DNA, one strand shown
# Matrix: in vitro
# Tested at: 2540 nM top
# Notes: 60-bp whole probe
# Together with: salmon DNA 0.4 mg/ml
# Baseline: random background probes
# Direction: higher = stronger binding
# All sequences stand within: GCCTAGCAC … GTCTTGATTCGCTTGACGCTGCTG
Sequence,fitted relative affinity
TGAGAACTGGGGTATCGATTAGTGCTA,-0.737 z-score
TCAATCTTCACTCTTAATTAGTGCTAG,0.943 z-score
GACGGTAGCGGGTATCGGGACGTGCTA,-0.317 z-score
TCATGACTGGAGTCTGGAACTGTGCTA,-0.804 z-score
TTAGATTTCGGGTTTCGAGTAGTGCTA,2.57 z-score
TTAGGACCGGGGTATCGGTTAGTGCTA,0.224 z-score
GAAGGTATCGGTCTCGGGACGTGCTAG,3.99 z-score
TCACGTCTGAGCTCCGTACTGTGCTAG,-0.39 z-score
GCTGCCCTCACCATCATCCTGTGCTAG,-0.418 z-score
TCACAGAAGGGAAACAGGACTGTGCTA,2.26 z-score
CTCTCCATGTGTTTAAAGACGTGCTAG,0.254 z-score
TCAGCATTGCTTCTATAACTGTGCTAG,-0.29 z-score
TGTTACTAGGGTTACATAATGTGCTAG,0.238 z-score
TTAGGTATCGGCTTCGGTTAGTGCTAG,1.03 z-score
GACGAACTGAGTCTAGAGACGTGCTAG,-0.345 z-score
TTAGGTATCGGTATCTGTTAGTGCTAG,4.13 z-score
TCAATTTTGCTTTCATTACTGTGCTAG,2.33 z-score
GACGAACTGGGGTGTCGAGACGTGCTA,-0.514 z-score
GACGGTATCGACTATCTGGACGTGCTA,0.676 z-score
GACGATCTCAGTCACGAGACGTGCTAG,0.404 z-score
GACGTACTGAGTATCGAGACGTGCTAG,-0.159 z-score
GACGGGCTGCTACTGCTGACGTGCTAG,-1.05 z-score
GCCGGACTGGGGTATCGGGACGTGCTA,-0.27 z-score

# Series 4
# Target: Histone acetyltransferase KAT6A, both winged helices, GST fusion (KAT6A, Homo sapiens, UniProt Q92794, residues 1-181)
# Technique: protein binding microarray
# Form: double-stranded DNA, one strand shown
# Matrix: in vitro
# Tested at: not given
# Notes: 8-mer, flanks averaged, mean of 2 arrays, mostly near background
# Baseline: not given
# Direction: higher = stronger binding
# Target sequence (chain): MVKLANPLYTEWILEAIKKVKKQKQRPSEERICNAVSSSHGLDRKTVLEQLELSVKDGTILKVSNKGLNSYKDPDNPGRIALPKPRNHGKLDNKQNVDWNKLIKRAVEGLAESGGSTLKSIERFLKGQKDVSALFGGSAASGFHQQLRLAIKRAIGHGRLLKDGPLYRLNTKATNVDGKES
Sequence,E-score
AGGCGAGG,-0.137
AAGAGAGT,-0.11
ACGTACGC,0.208
CAGCTAAC,-0.186
GGACAACC,-0.0383
AGGAACGC,0.15
GCTCGGTA,0.141
ACTACACT,-0.136
ACTCTAGA,-0.192
CTATTAAC,-0.0447
ACGAAACG,0.167
CTTGCTCA,-0.0693
CAGTTCCA,-0.104
AATAGGAC,-0.0999
AGGAAGTA,-0.139
ACTGTCGA,-0.117
ACTGGAGC,-0.0233
CAACCTTA,-0.095
CCCCGAGA,-0.0448
CCGGGAAG,0.166
CGGATTTA,0.0883
CGTGATGA,-0.0649
ATTGAGGC,-0.11
TAGCAGAA,-0.14
GATAGAGC,0.0613

# Some of these lines once more (series 2):
Sequence,RBNS enrichment (R)
UCAAAUGUAGUCUCUGUUAAGGUCAAGUUUUCUUUUAUAAGCCUUUAAUUCAUCCUCAGUGACUCUGGCAAGGCUGCUUCUCUAUCACUGGCUUUGCACAGAAGUAUGCU,0.856
CAAAUCUUGUUGCUGAUUUGUCCAUUUCUUUCCCUGCACUUUGUUACAUCUGGGAUACAGUCUAACUCAUCUGAUUUAAUAUGCAUUUAAAAAAAUGCCAUAACUAUUAA,0.533
UGGUUUUGAUUUCAGAUUGCAAACAUGUAAAACCUGCAUAGCAGCGAGUUCUCGGUUUUGCCGGUUUCUUUAGUUCUUUACUGUCACUGUCAUGUAAUCAGCUAAUUCUC,0.291
UACCCAGCAGGUAUCACUUGGUAAAAAUACAAGAGCAAAGCCACUUGAGACUGAAGGUUCUUUAAAGACCGUAAGGAUGGCUUCCGACGUGUCAUGCUGCUGCUGUGAUC,0.85
GACUCCCUGGGCUCCCCCCUGCCUUCAUCUCACAAGAAACUUCCUGAUGCAUCAAACUUGAGUUUUUUCCACCUCAUCUUUCCCAGUGUUUGGAAAGGUGUGAGGGUAGA,1.64
UAUGUAUAAUCUGUAUUUGAAAUCAUUUUGCAAUCUAUGGAAAUAGAGUAGCAAUUGCUAUUUCUAAAUUGUGAACUUUAAGUCAAUCUAGAUUUAUUUUGAGAAGUAAU,0.435
GCAUAACCUAUGCCACGAUGGUGAGAUAAUGUGAAAAAGUGGUAUCCUCUGAUGUCAGCGUAUUAGUCUCAGUUUACAAAGUACUUAAUAAAACUAACUACUGUAAAACC,0.296
UGGAGUUUACCAUGUUACCCUGUAAUUAAAAACAAAGAAUAGGUAACAUAUUGUGCCAGUGUUGCAACGUUUUAAACUGCUAACAGACCUUAAAAUAUCCCCCUACCUGG,0.228
ACAUCUCUUCCUUUUCCAGAUCCCAUGCUUUGAAAAAUAUUUAUAGACAGUUCCAGGUCUCAGCUUCCUGUCCUCUAGUUCUGCUGUUCGGGCAUAAAAUCUUUAUCUCC,0.579
AGGGGCUUUUAGUCGUCUCAGUAUCUUUUUUGCAUUCAGGUAUUAUAGCGUUUCCAACAAAUUGAGAAAUUACUUAUUUGGUGUAAAAUGACGAGAGAGCUUUAGAAUUU,0.746
AUUGAUGGGCUGGGGAACCCUGGAGAGCCUCGACUCCGGAAGUCUCAAGGUGCCUCCUCCUCUCCUUAGCUGGCCCGUUGGUUUUCUGAGCAGGGGGCUGAACUGUGAAC,0.228
UGCCAUCAACAUUGCUUGAAAUGCCUCUAUGUUCUGAAUAAAGAAAAACCAUAAUUGCUUGUGGUGAAACGAAGCAGUCUUCAUGUUAAGUAGCAAUGGUUAUUUUUAUU,0.385
